Measurements collected from several papers.
Compare with care: the assays were run in different laboratories. ± marks the error that the study gave.

| SMILES | test | test system | setting | scale | endpoint | value |
| --- | --- | --- | --- | --- | --- | --- |
| C[C@H]1N=C(c2ccccc2F)c2cc(Br)ccc2-n2cnc(C(=O)O)c21 |  | Swiss Webster mice, blood | oral, 25 mg/kg, 60 min, PEG400 2.5%, HPMC 98% |  | concentration | 322 nM |
| Cc1c(P(=S)(c2ccccc2)c2ccccc2)n2ccccc2[n+]1C/C=C/c1ccccc1 |  | mouse, brain | intraperitoneal, 10 mg/kg, 4 h |  | concentration | 24 ng/g |
| CCCCCOc1ccc(-c2cc(-c3ccc(C(=O)N[C@H]4C[C@@H](O)[C@@H](O)NC(=O)[C@@H]5[C@@H](O)[C@@H](C)CN5C(=O)[C@H]([C@H](O)CC(N)=O)NC(=O)[C@H]([C@H](O)[C@@H](O)c5ccc(O)c(OS(=O)(=O)O)c5)NC(=O)[C@@H]5C[C@@H](O)CN5C(=O)[C@H]([C@@H](C)O)NC4=O)cc3)no2)cc1 |  | human, 4 months to <2 years, plasma | intravenous, 4.5 mg/kg once daily, day 7 |  | AUC(tau) | 278 µg·h/mL |
| O[C@H]1CCCN[C@@H]1CCCn1cnc2c(Cl)c(Cl)ccc21 |  | human, plasma | oral, 100 mg single dose, capsule, geometric mean |  | Vz/F | 1560 L |
| Cn1cc(-c2cnc3cnn(S(=O)(=O)c4cnc5ccc(-c6cnn(C)c6)cn45)c3c2)cn1 |  | healthy Chinese male subjects, plasma | oral, 300 mg single dose | reference: high- or low-fat meal over fasted | Cmax and AUC ratio | ~2 fold |
| COc1ccc(C[C@@H]2NC(=O)[C@H]([C@@H](C)O)NC(=O)[C@@H]3[C@@H]4CCN3C(=O)[C@@H]3Cc5cn(c6ccc(F)cc56)CCCCCCN(Cc5ccc(cc5)CCNC(=O)[C@]5(C)CCCN5C2=O)C(=O)CCC(=O)N[C@@H](C)C(=O)N[C@H](CNC(=O)CCCCC[N+](C)(C)C)C(=O)N[C@@H](Cc2cccc(c2)CNC(=O)CO4)C(=O)N3)cc1 |  | fasted healthy humans, plasma | oral, 100 mg single dose, with 1800 mg Labrasol, geometric mean |  | CL/F | 997 mL/min |
| N=C(N)NCCC[C@H](NC(=O)[C@H](CCCNC(=N)N)NC(=O)[C@H](CCCNC(=N)N)NC(=O)[C@H](CCCNC(=N)N)NC(=O)[C@H](CCCNC(=N)N)NC(=O)[C@H](CCCNC(=N)N)NC(=O)[C@H](CCCNC(=N)N)NC(=O)[C@H](CCCNC(=N)N)NC(=O)c1ccc2c(c1)C(=O)OC21c2ccc(O)cc2Oc2cc(O)ccc21)C(=O)O | no effect | Sprague-Dawley rat, excised skin | 50 µmol/L, 37 °C, FAM-labelled CPP conjugate | reference: free FAM | apparent skin permeability | no effect |
| CN[C@@](C)(C[18F])C(=O)O |  | SCID mouse SK-OV-3 xenograft, bone | 15 min, post injection |  | tissue uptake | 3.2 ± 0.7 %ID/g |
| CCCCCCCCCCCCCCCC[N+](C)(C)Cc1ccccc1 | ultrafiltration | human serum |  |  | unbound fraction in blood | 0.172 |
| N=C(N)NCCC[C@H](NC(=O)[C@@H]1CCCN1C(=O)[C@H](Cc1c[nH]c2ccccc12)NC(=O)[C@H](CCCNC(=N)N)NC(=O)[C@H](Cc1ccccc1)NC(=O)[C@H](CC(=O)O)NC(=O)CNC(=O)[C@@H](N)CCCNC(=N)N)C(=O)O | Evans blue extravasation | Sprague-Dawley rat, BCCAO model | concentration not given, day 28 | reference: untreated BCCAO rats | BBB permeability | no effect |
| O=c1[nH]c(Cc2ccccn2)nc2c1cnn2C1CCOCC1 |  | healthy men, extensive metabolizers, plasma | oral, 350 mg single dose, tablet, geometric mean |  | half-life | 2.71 h |
| CC(C)(O)c1ccccc1CC[C@@H](SCC1(CC(=O)O)CC1)c1cccc(/C=C/c2ccc3ccc(Cl)cc3n2)c1 |  | human liver mitochondrial preparation | 1 µM, 30 min, 0.5 mg/mL protein |  | percent metabolized | 0% |
| COc1cc(Nc2ncc(F)c(Nc3ccc4c(n3)NC(=O)C(C)(C)O4)n2)cc(OC)c1OC |  | buffer without surfactant or BSA |  |  | solubility | < 1 µM |
| C[C@@H]1COCCN1c1cc([C@]2(O)C[C@H]3CC[C@@H](C2)O3)c2cnn(-c3cc[nH]n3)c2n1 |  | mouse, tumour-bearing | oral, 17 days, continuous daily dosing |  | MTD | 10 mg/kg |
| CC(=O)[O][Pt]([NH2])([Cl])([Cl])([NH]C1CCCCC1)[O]C(C)=O | refers to: platinum | rhesus monkey, plasma ultrafiltrate | intravenous infusion, 6 mg/kg over 1 h |  | AUC(0-24h) | 29.3 µM·h |
| [123I]c1cncc(OC[C@@H]2CCN2)c1 | SPECT | human, hippocampus | intravenous bolus, 2.1 mCi | reference: tissue over plasma | tissue/plasma ratio | 14.6 |
| CC(=O)N[C@H](CCCCNC(=O)C(C)F)C(=O)N[C@@H](CS)C(=O)N[C@@H](CS)C(=O)N[C@@H](CCC(=O)O)C(=O)N[C@@H](Cc1c[nH]cn1)C(=O)N[C@H](Cc1ccccc1)C(=O)N[C@@H](CCCNC(=N)N)C(=O)N[C@@H](Cc1c[nH]c2ccccc12)C(=O)N[C@@H](CS)C(=O)N[C@@H](CCCNC(=N)N)C(=O)N1CCC[C@H]1C(=O)N[C@H](C(N)=O)C(C)C (stereo partly drawn) [fluorine-18 labelled] |  | nude mice, A375M xenograft, brain | intravenous, 2 h |  | tissue uptake | 0.05 ± 0.01 %ID/g |
| CCCCCOc1ccc(-c2ccc(-c3ccc(C(=O)N[C@H]4C[C@@H](O)[C@@H](O)NC(=O)[C@@H]5[C@@H](O)[C@@H](C)CN5C(=O)[C@H]([C@@H](C)O)NC(=O)[C@H]([C@H](O)[C@@H](O)c5ccc(O)cc5)NC(=O)[C@@H]5C[C@@H](O)CN5C(=O)[C@H]([C@@H](C)O)NC4=O)cc3)cc2)cc1 | population PK model | patients aged sample A to < sample B years | intravenous, 200 mg loading, 100 mg once daily, median, weight-corrected |  | Vss | 0.73 L/kg |
| CCCCCOc1ccc(-c2ccc(-c3ccc(C(=O)N[C@H]4C[C@@H](O)[C@@H](OCC[N+](C)(C)C)NC(=O)[C@@H]5[C@@H](O)[C@@H](C)CN5C(=O)[C@H]([C@@H](C)O)NC(=O)[C@H]([C@H](O)[C@@H](O)c5ccc(O)cc5)NC(=O)[C@@H]5C[C@@H](O)CN5C(=O)[C@H]([C@@H](C)O)NC4=O)cc3)cc2)cc1 |  | healthy adult humans, plasma | subcutaneous, 10 mg, mean |  | Vz/F | 71.9 L |
| c1cc2ccc3cccc4ccc(c1)c2c34 | HPLC-fluorescence | Wistar rat, male, liver | oral, 4 mg/kg, 24 h |  | tissue concentration | 18.4 ± 3.2 ng/g |
| CC(=O)N[C@H](CCCCN)C(=O)N[C@H](CC(C)C)C(=O)N[C@@H](CCN)C(=O)N[C@H](CO)C(=O)N[C@H](CC(C)C)C(=O)N[C@H](CC(C)C)C(=O)N[C@@H](CCN)C(=O)N[C@@H](C(=O)N[C@H](CC(C)C)C(=O)N[C@H](CO)C(=O)N[C@@H](CCN)C(=O)N[C@H](C)C(=O)N[C@H](C)C(=O)N[C@H](C)C(=O)N[C@H](C)C(=O)N[C@H](C)C(=O)N[C@H](CC(C)C)C(=O)N[C@@H](CCN)C(=O)N[C@@H](C(=O)N[C@H](CC(C)C)C(=O)N[C@H](CC(C)C)C(=O)N[C@@H](CCN)C(=O)N[C@H](C)C(=O)N[C@H](CC(C)C)C(=O)N[C@H](CO)C(=O)N[C@@H](CCN)C(N)=O)[C@H](C)O)[C@H](C)O |  | human erythrocytes | 18 h, pH 7.4, 37 °C, 50% hemolysis |  | HC50 | 20 µg/mL |
| CC(C)[C@H](NC(=O)[C@H](Cc1c[nH]c2ccccc12)NC(=O)[C@H](CCCCN)NC(=O)CNC(=O)[C@@H](NC(=O)[C@H](C)NC(=O)[C@@H]1CCCN1C(=O)[C@H](CC(N)=O)NC(=O)[C@H](Cc1c[nH]c2ccccc12)NC(=O)[C@H](Cc1c[nH]cn1)NC(=O)[C@H](Cc1c[nH]c2ccccc12)NC(=O)[C@@H](N)CCCNC(=N)N)[C@@H](C)O)C(=O)N[C@@H](Cc1c[nH]c2ccccc12)C(=O)N[C@@H](CCC(=O)O)C(=O)O | circular dichroism | phosphate buffer | pH 6.5 |  | Tm | 80.7 ± 0.1 °C |
| CC[C@H](C)[C@H](NC(=O)[C@H](CC(C)C)NC(=O)[C@H](Cc1c[nH]c2ccccc12)NC(=O)[C@H](CCC(N)=O)NC(=O)[C@@H](NC(=O)[C@H](Cc1ccccc1)NC(=O)[C@H](C)NC(=O)[C@H](CCCCNC(=O)COCCOCCNC(=O)COCCOCCNC(=O)CC[C@H](NC(=O)CCCCCCCCCCCCCCCCCCC(=O)O)C(=O)O)NC(=O)[C@H](CCC(N)=O)NC(=O)[C@H](C)NC(=O)[C@@H](NC(=O)[C@H](CCCCN)NC(=O)[C@H](CC(=O)O)NC(=O)[C@H](CC(C)C)NC(=O)C(C)(C)NC(=O)[C@@H](NC(=O)[C@H](CO)NC(=O)[C@H](Cc1ccc(O)cc1)NC(=O)[C@H](CC(=O)O)NC(=O)[C@H](CO)NC(=O)[C@@H](NC(=O)[C@H](Cc1ccccc1)NC(=O)[C@@H](NC(=O)CNC(=O)[C@H](CCC(=O)O)NC(=O)C(C)(C)NC(=O)[C@@H](N)Cc1ccc(O)cc1)[C@@H](C)O)[C@@H](C)O)[C@@H](C)CC)[C@@H](C)CC)C(C)C)C(=O)N[C@@H](C)C(=O)NCC(=O)NCC(=O)N1CCC[C@H]1C(=O)N[C@@H](CO)C(=O)N[C@@H](CO)C(=O)NCC(=O)N[C@@H](C)C(=O)N1CCC[C@H]1C(=O)N1CCC[C@H]1C(=O)N1CCC[C@H]1C(=O)N[C@@H](CO)C(N)=O |  | human, severe hepatic impairment | subcutaneous, 5 mg | reference: normal hepatic function | tmax difference | 0 h |
| CCNc1nc(Cl)nc(NCC)n1 | LC-MS/MS | herbicide solution | 2 h, 4 °C, together with: 254 nm UV exposure |  | remaining amount | 11.7 ± 1.61% |

Repeated from above:
| SMILES | test | test system | setting | scale | endpoint | value |
| --- | --- | --- | --- | --- | --- | --- |
| CC(C)(O)c1ccccc1CC[C@@H](SCC1(CC(=O)O)CC1)c1cccc(/C=C/c2ccc3ccc(Cl)cc3n2)c1 |  | human liver mitochondrial preparation | 1 µM, 30 min, 0.5 mg/mL protein |  | percent metabolized | 0% |
| CC[C@H](C)[C@H](NC(=O)[C@H](CC(C)C)NC(=O)[C@H](Cc1c[nH]c2ccccc12)NC(=O)[C@H](CCC(N)=O)NC(=O)[C@@H](NC(=O)[C@H](Cc1ccccc1)NC(=O)[C@H](C)NC(=O)[C@H](CCCCNC(=O)COCCOCCNC(=O)COCCOCCNC(=O)CC[C@H](NC(=O)CCCCCCCCCCCCCCCCCCC(=O)O)C(=O)O)NC(=O)[C@H](CCC(N)=O)NC(=O)[C@H](C)NC(=O)[C@@H](NC(=O)[C@H](CCCCN)NC(=O)[C@H](CC(=O)O)NC(=O)[C@H](CC(C)C)NC(=O)C(C)(C)NC(=O)[C@@H](NC(=O)[C@H](CO)NC(=O)[C@H](Cc1ccc(O)cc1)NC(=O)[C@H](CC(=O)O)NC(=O)[C@H](CO)NC(=O)[C@@H](NC(=O)[C@H](Cc1ccccc1)NC(=O)[C@@H](NC(=O)CNC(=O)[C@H](CCC(=O)O)NC(=O)C(C)(C)NC(=O)[C@@H](N)Cc1ccc(O)cc1)[C@@H](C)O)[C@@H](C)O)[C@@H](C)CC)[C@@H](C)CC)C(C)C)C(=O)N[C@@H](C)C(=O)NCC(=O)NCC(=O)N1CCC[C@H]1C(=O)N[C@@H](CO)C(=O)N[C@@H](CO)C(=O)NCC(=O)N[C@@H](C)C(=O)N1CCC[C@H]1C(=O)N1CCC[C@H]1C(=O)N1CCC[C@H]1C(=O)N[C@@H](CO)C(N)=O |  | human, severe hepatic impairment | subcutaneous, 5 mg | reference: normal hepatic function | tmax difference | 0 h |
| N=C(N)NCCC[C@H](NC(=O)[C@@H]1CCCN1C(=O)[C@H](Cc1c[nH]c2ccccc12)NC(=O)[C@H](CCCNC(=N)N)NC(=O)[C@H](Cc1ccccc1)NC(=O)[C@H](CC(=O)O)NC(=O)CNC(=O)[C@@H](N)CCCNC(=N)N)C(=O)O | Evans blue extravasation | Sprague-Dawley rat, BCCAO model | concentration not given, day 28 | reference: untreated BCCAO rats | BBB permeability | no effect |
